Experimental data of several laboratories.
Protocols differ between the studies behind these lines. Several values in a cell are separate wells, animals, samples, runs or records. ± marks the error that the study gave.
Organism: Plasmodium falciparum

Structure (SMILES)	test	test system	conditions	how to read	quantity	result
COCCCNc1cc(C(=O)NC2CC3CCC(C2)N3c2ccc(C(=O)NCc3ccccc3)cn2)ccc1C(N)=O (stereo not shown)	–	3D7	asexual blood stage, together with: bortezomib	–	sensitising concentration	250 to 1000 nM
CCOc1ccc2cc(-c3nn(CC4CCNCC4)c4ncnc(N)c34)ccc2c1	gametocyte exflagellation, inhibitor	wild type	–	–	EC50	< 40 nM
O=C(c1ccccc1)N(O)CCCP(=O)(O)O	parasite growth	3D7	–	–	IC50	> 356000 nM
CNC(=O)[C@@H]1Cc2c([nH]c3ccccc23)[C@@H](c2ccc(F)cc2Cl)N1	parasite growth	Dd2 (MRA-150)	–	–	IC50	506 ± 45 nM
CNCCNC(=O)c1cc2c([nH]c3ccccc32)c(-c2cc(Cl)c(Cl)c(Cl)c2)n1	SYBR Green I	Dd2	72 h, asexual blood stage	–	EC50	54 ± 8 nM
CC(=O)N1CCC[C@@H]1C(=O)N[C@@H](C)C(=O)N[C@@H](Cc1ccccc1)B(O)O	–	HepG2 cells, 3D7	72 h	reference: HepG2 over 3D7	selectivity ratio	49 fold
O=C(NCCNCCO)c1cc2c([nH]c3ccccc32)c(-c2cc(Cl)c(Cl)c(Cl)c2)n1	SYBR Green I	Dd2	72 h, asexual blood stage	–	EC50	74 ± 18 nM
CCOc1ccc2cc(-c3nn(CC4CCNCC4)c4ncnc(N)c34)ccc2n1	gametocyte exflagellation, inhibitor	wild type	–	–	EC50	< 40 nM
NCCNC(=O)c1cc2c([nH]c3ccccc32)c(-c2ccc(C(F)(F)F)cc2)n1	SYBR Green I	Dd2	72 h, asexual blood stage	–	EC50	95 nM and ~100 nM
CS(=O)(=O)Cc1onc(-c2cccc(Cl)c2)c1-c1ccnc(N[C@@H]2CCN(Cc3nccs3)C2)n1	parasite growth	3D7 A10	72 h, asexual blood stage	–	EC50	9490 ± 2130 nM

For quick reference, copied from above:
Structure (SMILES)	test	test system	conditions	how to read	quantity	result
O=C(c1ccccc1)N(O)CCCP(=O)(O)O	parasite growth	3D7	–	–	IC50	> 356000 nM
